Published values from different studies.
± marks the error that the study gave.

Compound | tested on | assay | system | conditions | scale | quantity | result
CN1CCCNC(=O)c2cccc(c2)C(=O)NCCCN(C)CCCNc2cccc3c2C(=O)c2cccc(c2C3=O)NCCC1 | SAS | RNA-Seq, measured: ZFYVE27 mRNA |  | 5 µM, 6 h | reference: untreated cells | log2 fold change | -2.84
Nc1ncc(-c2cc(-c3cnn(CC(F)(F)F)c3)ncc2F)nc1C(=O)NC1CNCC(F)C1 (stereo not drawn) | MYLK2 | KINOMEscan |  | 1 µM | reference: DMSO control | remaining binding | 91%
C=CC(=O)Nc1cccc(Cn2ncc3cnc(Nc4cnn(CCOC)c4)nc32)c1 | CSNK2A2 human | binding, KINOMEscan |  | 100 nM | lower = stronger binding | percent of control | 23%
O=C(N/N=C/c1cc[n+](Cc2ccccc2)c2ccccc12)c1cc(C(=O)N/N=C/c2cc[n+](Cc3ccccc3)c3ccccc23)ncn1 | myc22 MYC G4-DNA parallel | FRET melting |  | 1 µM, K1 buffer, DNA 0.2 µM, together with: ds26 10 µM |  | ΔTm | 9.1 ± 0.2 °C
CNS(=O)(=O)Nc1nccc(Cc2c(C)c3ccc(Oc4ncccc4F)cc3oc2=O)c1F | SK-N-AS | cell viability, CellTiter-Glo |  | 7 days |  | IC50 | 6.92 nM
O=C(N/N=C/c1cc[n+](CC2CC2)c2ccccc12)N/N=C/c1cc[n+](CC2CC2)c2ccccc12 | myc22 MYC G4-DNA parallel | FRET melting |  | 1 µM, K1 buffer, DNA 0.2 µM, together with: ds26 10 µM |  | ΔTm | 3.7 ± 0.5 °C
COC1CN([C@H]2CC[C@H]([C@@]3(C)Oc4c(Cl)cc(C(=O)NCc5c(SC)cc(C)[nH]c5=O)c(C)c4O3)CC2)C1 |  | RNA-seq, measured: MAPRE3 | human, whole blood | dose not given, 24 h | reference: pretreatment baseline | log2 fold change | 1.7
C[n+]1ccc(/C=N/NC(=O)C(=O)N/N=C/c2cc[n+](C)cc2)cc1 | myc22 MYC G4-DNA parallel | FRET melting |  | 1 µM, K1 buffer, DNA 0.2 µM |  | ΔTm | 3.6 ± 0.3 °C
Cc1ncsc1-c1ccc(C(C)NC(=O)C2CC(O)CN2C(=O)C(NC(=O)CCCCCCCCCCN2CCCC(Nc3ncc(Cl)c(Nc4ccccc4S(=O)(=O)C(C)C)n3)C2)C(C)(C)C)cc1 (stereo not drawn) | 22Rv1 | RNA-seq, measured: ZNF799 mRNA |  | concentration not given | reference: DMSO | log2 fold change | -1.45

Repeated from above:
Compound | tested on | assay | system | conditions | scale | quantity | result
O=C(N/N=C/c1cc[n+](CC2CC2)c2ccccc12)N/N=C/c1cc[n+](CC2CC2)c2ccccc12 | myc22 MYC G4-DNA parallel | FRET melting |  | 1 µM, K1 buffer, DNA 0.2 µM, together with: ds26 10 µM |  | ΔTm | 3.7 ± 0.5 °C
